Measurements from different studies.
Every numbered part comes from another study and shows a few of its results, in no order.
Chain of UniProt Q9UQM7 (whole entry, looked up): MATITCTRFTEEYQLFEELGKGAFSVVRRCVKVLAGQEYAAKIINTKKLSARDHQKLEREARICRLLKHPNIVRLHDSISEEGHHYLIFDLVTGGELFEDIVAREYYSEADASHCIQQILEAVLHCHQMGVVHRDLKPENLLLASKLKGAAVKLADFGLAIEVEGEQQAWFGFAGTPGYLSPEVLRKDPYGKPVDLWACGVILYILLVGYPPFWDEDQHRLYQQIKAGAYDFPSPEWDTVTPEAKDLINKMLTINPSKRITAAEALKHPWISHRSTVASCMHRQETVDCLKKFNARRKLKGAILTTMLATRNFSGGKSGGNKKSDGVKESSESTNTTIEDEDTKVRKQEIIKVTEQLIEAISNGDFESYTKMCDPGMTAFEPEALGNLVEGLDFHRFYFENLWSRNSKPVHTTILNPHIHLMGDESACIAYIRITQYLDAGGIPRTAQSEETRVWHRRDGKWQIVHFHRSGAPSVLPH

Sample 1 — effect on: binding; technique: radioligand binding; tested at: 10 µM
Target: D(1A) dopamine receptor (DRD1, Homo sapiens, UniProt P21728)
Chain of UniProt P21728 (whole entry, looked up): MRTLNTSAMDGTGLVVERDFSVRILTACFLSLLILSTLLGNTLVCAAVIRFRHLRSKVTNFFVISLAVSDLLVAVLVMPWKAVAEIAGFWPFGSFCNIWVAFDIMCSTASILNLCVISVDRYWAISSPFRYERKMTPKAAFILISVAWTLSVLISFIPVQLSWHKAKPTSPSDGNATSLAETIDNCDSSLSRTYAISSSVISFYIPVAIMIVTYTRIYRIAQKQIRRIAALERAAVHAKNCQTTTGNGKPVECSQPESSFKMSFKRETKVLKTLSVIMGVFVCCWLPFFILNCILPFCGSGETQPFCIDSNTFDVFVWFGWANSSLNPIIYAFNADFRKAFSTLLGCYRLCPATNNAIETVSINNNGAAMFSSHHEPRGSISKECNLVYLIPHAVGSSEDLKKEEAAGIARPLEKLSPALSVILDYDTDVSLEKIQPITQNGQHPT
`CNC(=O)c1ccc(Nc2ncc(C(F)(F)F)c(NCc3nccnc3N(C)S(C)(=O)=O)n2)cc1` has an inhibition of -53.3%.
For `Cc1nc(N2CC[C@@H](O)C2)ncc1-c1cc(C(F)(F)F)cc2[nH]ncc12`, the inhibition was 11.1%.
With `O[C@]1(C(F)(F)F)CCCC[C@H]1Nc1ccc(F)cc1` the inhibition was 15.6%.
With `O=C(O)c1cc(-c2ccc(C3CCNCC3)cc2)c2ccc(-c3ccc(C(F)(F)F)cc3)cc2c1` the inhibition was 71.4%.

Sample 2 — cell line: A-375; tested at: 100 µM; time: 36 h
The viability of `Cc1ccc(C(=O)Nc2ccc(CN3CCN(C)CC3)c(C(F)(F)F)c2)cc1C#Cc1cnc2cccnn12` is reported as 0.728%.
For `Cc1cc(-c2ccc(/N=N/c3ccc4c(S(=O)(=O)O)cc(S(=O)(=O)O)c(N)c4c3O)c(C)c2)ccc1/N=N/c1ccc2c(S(=O)(=O)O)cc(S(=O)(=O)O)c(N)c2c1O`, the viability was 139%.
For `O=C1CCc2cc(OCCCCc3nnnn3C3CCCCC3)ccc2N1`, the viability was 75.8%.
For `CC(C)c1ccc2oc3nc(N)c(C(=O)O)cc3c(=O)c2c1`, the viability was 93.2%.
`COC(=O)N[C@H](C(=O)N1CCC[C@H]1c1nc(-c2ccc(-c3ccc(-c4c[nH]c([C@@H]5CCCN5C(=O)[C@@H](NC(=O)OC)C(C)C)n4)cc3)cc2)c[nH]1)C(C)C` gave a viability of 9.23%.

Sample 3 — host: human; medium: microsomes or S9; tested at: 2 µM; time: 0.5 h
`O=C(NOCc1ccccc1)c1ccc2c(c1)NC(CCNS(=O)(=O)c1ccc(F)cc1)C(=O)N2` (stereo not shown) has a remaining compound of 107%.
With `Cc1cc(C)cc(OC(C)C(=O)NCCN(C)C)c1` (stereo not shown) the remaining compound was 92.9%.
`CC(C)(C)OC(=O)Nc1cccc(C(=O)NCc2c(F)cccc2F)n1` has a remaining compound of over 99%.
The remaining compound of `CCC(c1ccccn1)n1cc(-c2nn(C)c3cccc(Cl)c23)nn1` (stereo not shown) is reported as 80.2%.

Sample 4 — effect on: enzyme activity; mode: inhibitor; tested at: 0.5 µM; baseline: control
Target: Serine/threonine-protein kinase Nek9 (NEK9, Homo sapiens, UniProt Q8TD19)
Chain of UniProt Q8TD19 (whole entry, looked up): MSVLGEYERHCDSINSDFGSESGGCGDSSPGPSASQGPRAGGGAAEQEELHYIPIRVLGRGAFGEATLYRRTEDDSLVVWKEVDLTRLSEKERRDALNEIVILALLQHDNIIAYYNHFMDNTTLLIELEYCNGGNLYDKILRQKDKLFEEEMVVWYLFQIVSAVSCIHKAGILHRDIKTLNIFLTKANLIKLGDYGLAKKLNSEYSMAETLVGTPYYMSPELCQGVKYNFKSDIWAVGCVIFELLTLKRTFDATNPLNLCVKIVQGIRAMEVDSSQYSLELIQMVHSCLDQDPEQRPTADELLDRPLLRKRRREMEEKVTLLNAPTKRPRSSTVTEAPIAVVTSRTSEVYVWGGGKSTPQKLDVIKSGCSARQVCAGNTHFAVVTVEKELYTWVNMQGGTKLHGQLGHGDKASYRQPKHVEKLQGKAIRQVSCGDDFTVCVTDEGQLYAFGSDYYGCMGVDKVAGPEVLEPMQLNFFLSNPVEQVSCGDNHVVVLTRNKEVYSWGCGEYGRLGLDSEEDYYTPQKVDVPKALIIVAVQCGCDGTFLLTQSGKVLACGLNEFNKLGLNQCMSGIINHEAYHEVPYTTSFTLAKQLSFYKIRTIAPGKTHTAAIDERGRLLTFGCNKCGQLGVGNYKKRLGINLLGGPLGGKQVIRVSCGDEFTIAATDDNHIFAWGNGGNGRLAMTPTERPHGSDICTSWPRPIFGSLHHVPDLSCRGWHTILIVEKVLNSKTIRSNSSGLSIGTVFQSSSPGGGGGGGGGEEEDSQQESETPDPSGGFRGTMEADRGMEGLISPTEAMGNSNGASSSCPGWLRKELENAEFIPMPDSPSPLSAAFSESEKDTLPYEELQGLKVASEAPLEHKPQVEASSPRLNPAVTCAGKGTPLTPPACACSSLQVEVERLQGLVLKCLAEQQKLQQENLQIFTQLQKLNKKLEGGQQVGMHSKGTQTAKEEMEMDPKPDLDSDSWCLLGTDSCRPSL
`N#CC(C#N)=C(N)/C(C#N)=C/c1ccc(O)cc1` gave a remaining activity of 97.9%.
With `O=C1NC(=O)C(c2cn(CCCn3ccnc3)c3ccccc23)=C1Nc1ccccc1` the remaining activity was 89.1%.
`Nc1[nH]nc2nc3ccccc3nc12` gave a remaining activity of 98.5%.
The remaining activity of `COc1cc2ncnc(Nc3ccc(Oc4ccccc4)cc3)c2cc1OC` is reported as 97.8%.
`O=C1NC(=O)C(c2cn(CCCO)c3ncccc23)=C1c1cnccn1` gave a remaining activity of 93.4%.
The remaining activity of `Nc1ncnc2n[nH]c(Nc3ccc(F)cc3)c12` is reported as 97.9%.
`O=S(=O)(c1cccc2cnccc12)N1CCCNCC1` has a remaining activity of 95.9%.
`O=c1c2ccccc2[nH]c(=S)n1CCN1CCC(=C(c2ccc(F)cc2)c2ccc(F)cc2)CC1` gave a remaining activity of 97%.
The remaining activity of `COc1cc2ncnc(Nc3ccc(F)c(Cl)c3)c2cc1OCCCN1CCOCC1` is reported as 99.3%.
`COc1ccc(C(=O)Nc2sc3c(c2C(N)=O)CCCC3)cc1OC` has a remaining activity of 94.6%.
`CO[C@H]1C[C@@H]2CC[C@@H](C)[C@@](O)(O2)C(=O)C(=O)N2CCCC[C@H]2C(=O)O[C@H]([C@H](C)C[C@@H]2CC[C@@H](O)[C@H](OC)C2)CC(=O)[C@H](C)/C=C(\C)[C@@H](O)[C@@H](OC)C(=O)[C@H](C)C[C@H](C)/C=C/C=C/C=C/1C` has a remaining activity of 98.2%.
`Cc1ccc(NC(=O)c2ccc(CN3CCN(C)CC3)cc2)cc1Nc1nc(-c2cccnc2)cs1` gave a remaining activity of 98.6%.
`COc1cc2nccc(Oc3ccc(NC(=S)NC(=O)c4ccccc4C)cc3)c2cc1OC` gave a remaining activity of 103%.
For `O=C(Nc1cccc(Nc2cc(Nc3cccc(C(F)(F)F)c3)ncn2)c1)C1CC1`, the remaining activity was 101%.

Mixed results
The IC50 of `Cc1cc(-c2ccc(/N=N/c3ccc4c(S(=O)(=O)O)cc(S(=O)(=O)O)c(N)c4c3O)c(C)c2)ccc1/N=N/c1ccc2c(S(=O)(=O)O)cc(S(=O)(=O)O)c(N)c2c1O` is reported as 197 nM (Calcium/calmodulin-dependent protein kinase type II subunit alpha (CAMK2A, Homo sapiens, UniProt Q9UQM7); enzyme activity, inhibitor, ADP detection).

A few entries again (sample 4):
`O=S(=O)(c1cccc2cnccc12)N1CCCNCC1` has a remaining activity of 95.9%.
`O=c1c2ccccc2[nH]c(=S)n1CCN1CCC(=C(c2ccc(F)cc2)c2ccc(F)cc2)CC1` gave a remaining activity of 97%.
